Measured values gathered from unrelated publications.
± marks the error that the study gave.
Ricin A chain: Ricin, A chain (Ricinus communis, UniProt P02879)
OPRK1: Kappa-type opioid receptor (OPRK1, Homo sapiens, UniProt P41145)
Ache: Acetylcholinesterase (Ache, Mus musculus, UniProt P21836)

Sequences of proteins named here, by UniProt entry; tags and fusion partners are left off. Residues count along the entry.
UniProt P41145, whole entry: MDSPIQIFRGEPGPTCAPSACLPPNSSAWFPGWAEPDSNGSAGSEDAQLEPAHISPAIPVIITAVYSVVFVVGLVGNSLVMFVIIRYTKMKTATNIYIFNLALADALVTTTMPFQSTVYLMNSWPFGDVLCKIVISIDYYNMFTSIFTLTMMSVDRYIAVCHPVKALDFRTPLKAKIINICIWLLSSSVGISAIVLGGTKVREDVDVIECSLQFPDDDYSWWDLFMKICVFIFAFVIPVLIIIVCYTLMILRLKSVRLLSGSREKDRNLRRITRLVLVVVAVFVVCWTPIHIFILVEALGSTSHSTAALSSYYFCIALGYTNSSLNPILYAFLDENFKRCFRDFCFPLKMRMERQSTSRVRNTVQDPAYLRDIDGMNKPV
UniProt P21836, whole entry, looked up: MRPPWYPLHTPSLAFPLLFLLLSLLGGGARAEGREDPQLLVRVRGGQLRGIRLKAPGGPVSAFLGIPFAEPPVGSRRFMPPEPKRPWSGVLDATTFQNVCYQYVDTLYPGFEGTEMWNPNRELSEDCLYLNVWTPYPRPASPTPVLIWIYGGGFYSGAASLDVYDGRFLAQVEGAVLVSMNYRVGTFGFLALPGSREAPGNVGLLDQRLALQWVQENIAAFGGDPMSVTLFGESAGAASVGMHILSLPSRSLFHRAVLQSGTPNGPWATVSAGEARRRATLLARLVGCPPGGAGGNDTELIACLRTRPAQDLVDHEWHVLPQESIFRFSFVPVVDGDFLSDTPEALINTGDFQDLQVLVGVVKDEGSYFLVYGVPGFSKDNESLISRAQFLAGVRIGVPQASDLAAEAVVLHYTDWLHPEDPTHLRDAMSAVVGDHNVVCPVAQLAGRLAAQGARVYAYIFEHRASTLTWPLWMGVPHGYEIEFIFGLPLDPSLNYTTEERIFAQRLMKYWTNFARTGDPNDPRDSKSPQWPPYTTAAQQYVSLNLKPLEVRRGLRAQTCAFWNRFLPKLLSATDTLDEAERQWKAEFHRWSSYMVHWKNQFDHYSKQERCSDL
UniProt P35372, whole entry: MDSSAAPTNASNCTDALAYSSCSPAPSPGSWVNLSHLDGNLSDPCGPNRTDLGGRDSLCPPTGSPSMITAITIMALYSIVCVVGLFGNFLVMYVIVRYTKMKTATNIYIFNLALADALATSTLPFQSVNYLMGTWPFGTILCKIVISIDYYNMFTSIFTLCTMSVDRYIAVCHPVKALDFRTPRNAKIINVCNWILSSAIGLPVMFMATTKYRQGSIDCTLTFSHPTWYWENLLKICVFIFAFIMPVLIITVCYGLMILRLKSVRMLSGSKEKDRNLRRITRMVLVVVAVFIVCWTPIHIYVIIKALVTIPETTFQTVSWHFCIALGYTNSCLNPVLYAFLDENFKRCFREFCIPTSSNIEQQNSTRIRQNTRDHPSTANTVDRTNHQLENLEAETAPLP
UniProt P22303, 32-614 limits assumed: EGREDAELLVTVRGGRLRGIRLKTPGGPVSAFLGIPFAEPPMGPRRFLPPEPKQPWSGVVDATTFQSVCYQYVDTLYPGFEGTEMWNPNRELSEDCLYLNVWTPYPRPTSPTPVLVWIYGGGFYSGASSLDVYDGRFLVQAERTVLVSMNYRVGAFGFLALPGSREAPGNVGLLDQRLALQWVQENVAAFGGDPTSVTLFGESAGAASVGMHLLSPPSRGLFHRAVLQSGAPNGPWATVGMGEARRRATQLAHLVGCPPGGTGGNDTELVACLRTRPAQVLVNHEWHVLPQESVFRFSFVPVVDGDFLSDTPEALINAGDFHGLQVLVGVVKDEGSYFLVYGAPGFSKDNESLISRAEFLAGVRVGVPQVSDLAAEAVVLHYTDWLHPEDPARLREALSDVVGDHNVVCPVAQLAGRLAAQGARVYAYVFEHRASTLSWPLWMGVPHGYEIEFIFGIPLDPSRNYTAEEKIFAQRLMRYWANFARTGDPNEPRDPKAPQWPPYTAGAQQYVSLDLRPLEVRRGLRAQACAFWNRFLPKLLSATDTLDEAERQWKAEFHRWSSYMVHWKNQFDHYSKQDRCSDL
UniProt P22303, whole entry, looked up: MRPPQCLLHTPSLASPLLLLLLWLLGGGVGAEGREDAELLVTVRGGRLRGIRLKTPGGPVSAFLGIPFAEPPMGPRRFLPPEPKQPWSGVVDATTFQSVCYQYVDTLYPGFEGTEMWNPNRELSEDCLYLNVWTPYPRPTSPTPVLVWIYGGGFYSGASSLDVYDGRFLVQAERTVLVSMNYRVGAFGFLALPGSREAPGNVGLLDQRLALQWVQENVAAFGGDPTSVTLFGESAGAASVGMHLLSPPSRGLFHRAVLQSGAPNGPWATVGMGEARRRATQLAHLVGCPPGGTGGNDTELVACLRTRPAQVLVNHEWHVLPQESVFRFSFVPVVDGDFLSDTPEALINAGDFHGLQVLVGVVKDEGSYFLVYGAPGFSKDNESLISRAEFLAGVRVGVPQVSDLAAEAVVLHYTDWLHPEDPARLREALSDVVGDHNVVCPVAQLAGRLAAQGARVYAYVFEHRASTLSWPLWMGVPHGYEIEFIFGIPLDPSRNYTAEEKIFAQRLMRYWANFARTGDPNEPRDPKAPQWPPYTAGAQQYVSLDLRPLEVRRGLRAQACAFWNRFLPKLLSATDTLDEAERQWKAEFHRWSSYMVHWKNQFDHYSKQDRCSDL
UniProt P02770, 25-608 limits assumed: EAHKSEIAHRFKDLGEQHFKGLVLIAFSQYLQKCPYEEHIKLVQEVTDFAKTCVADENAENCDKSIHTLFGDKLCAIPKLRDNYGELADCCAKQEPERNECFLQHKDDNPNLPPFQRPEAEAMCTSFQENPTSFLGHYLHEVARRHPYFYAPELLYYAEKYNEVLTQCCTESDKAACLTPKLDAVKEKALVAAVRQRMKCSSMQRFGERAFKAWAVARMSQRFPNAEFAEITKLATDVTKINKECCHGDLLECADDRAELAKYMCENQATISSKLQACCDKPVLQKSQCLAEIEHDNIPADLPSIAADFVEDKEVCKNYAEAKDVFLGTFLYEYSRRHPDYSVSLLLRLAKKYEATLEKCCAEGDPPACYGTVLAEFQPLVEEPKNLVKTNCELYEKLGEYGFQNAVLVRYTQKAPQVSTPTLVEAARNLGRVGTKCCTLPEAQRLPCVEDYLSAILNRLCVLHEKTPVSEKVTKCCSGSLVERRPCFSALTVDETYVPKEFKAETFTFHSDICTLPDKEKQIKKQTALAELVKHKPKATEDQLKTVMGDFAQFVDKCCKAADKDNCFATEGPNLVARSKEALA
UniProt Q99720, whole entry: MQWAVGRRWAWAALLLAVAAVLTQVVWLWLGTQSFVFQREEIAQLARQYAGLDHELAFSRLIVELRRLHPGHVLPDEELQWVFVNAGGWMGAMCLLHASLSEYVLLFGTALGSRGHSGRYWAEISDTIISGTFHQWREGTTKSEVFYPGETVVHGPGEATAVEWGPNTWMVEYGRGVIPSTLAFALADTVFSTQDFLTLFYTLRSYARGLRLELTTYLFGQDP
UniProt P23953, whole entry, looked up: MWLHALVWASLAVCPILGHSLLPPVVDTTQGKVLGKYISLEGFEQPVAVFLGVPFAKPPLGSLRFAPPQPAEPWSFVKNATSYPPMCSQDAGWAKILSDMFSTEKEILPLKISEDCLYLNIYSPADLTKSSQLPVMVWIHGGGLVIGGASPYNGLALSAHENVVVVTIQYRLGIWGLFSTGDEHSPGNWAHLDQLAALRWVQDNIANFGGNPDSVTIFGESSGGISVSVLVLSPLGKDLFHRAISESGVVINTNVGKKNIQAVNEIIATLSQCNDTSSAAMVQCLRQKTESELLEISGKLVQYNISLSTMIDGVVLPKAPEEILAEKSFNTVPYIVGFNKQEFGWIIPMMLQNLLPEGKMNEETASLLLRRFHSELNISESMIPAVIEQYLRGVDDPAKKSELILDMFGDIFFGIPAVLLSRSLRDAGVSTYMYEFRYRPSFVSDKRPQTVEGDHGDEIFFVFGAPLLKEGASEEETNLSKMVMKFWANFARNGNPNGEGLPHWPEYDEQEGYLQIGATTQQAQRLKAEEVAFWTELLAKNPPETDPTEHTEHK

CNC(=O)c1cnc2c(=O)[nH]c(N)nc2n1 — ΔTm (Ricin A chain; differential scanning fluorimetry; 500 µM, pH 7.5, 2 µM protein): 0.4 °C
CCOC(=O)/C=C/[C@H](C[C@@H]1CCNC1=O)NC(=O)[C@@H](CC(=O)[C@@H](NC(=O)c1cc(C)on1)C(C)C)Cc1ccc(F)cc1 — reporter signal (Replicase polyprotein 1ab, main protease (rep, Severe acute respiratory syndrome coronavirus 2, UniProt P0DTD1); inhibitor; SARS-CoV-2; below 40 µM, 48 h): no effect
Oc1cccc(N2[C@@H]3CC[C@H]2CN(CCCc2ccccc2)C3)c1 — Imax (OPRK1; SAFETYscan; human receptor): 89.9%
CO[C@]12CC[C@@]3(C[C@@H]1[C@](C)(O)c1cccc(F)c1)[C@H]1Cc4ccc(O)c5c4[C@@]3(CCN1CC1CC1)[C@H]2O5 — stimulation (OPRK1; G-protein activation, agonist; 10 µM; reference: U-69593): 77 ± 1%
Nc1nc2nc(C(=O)NCCNc3ccccc3)cnc2c(=O)[nH]1 — ΔTm (Ricin A chain; differential scanning fluorimetry; 500 µM, pH 7.5, 2 µM protein): 3 °C
CCCCCc1cc(O)c([C@@H]2C=C(C)CC[C@H]2C(C)C)c(O)c1 — IC50 ratio (Mu-type opioid receptor (OPRM1, Homo sapiens, UniProt P35372); cAMP inhibition reversal, antagonist; together with: fentanyl; reference: cannabidiol IC50 over compound IC50): ~86
CC(C)OP(=S)(OC(C)C)SCCNS(=O)(=O)c1ccccc1 — IC50 (Acetylcholinesterase (ACHE, Homo sapiens, UniProt P22303); enzyme activity, inhibitor, colorimetric; rat liver microsomes with NADPH): inactive
[3H]diisopropyl fluorophosphate — binding stoichiometry increase (Albumin (Alb, Rattus norvegicus, UniProt P02770); 19 µM, 1 h; reference: commercial over native rat albumin): ~5 fold
CCN(CC)Cc1cc(N)ccc1O — k2 (Acetylcholinesterase, paraoxon-inhibited (ACHE, Homo sapiens, UniProt P22303); reactivation of inhibited enzyme, reactivator; maximum rate at saturation, together with: paraoxon-inhibited enzyme): ~0.14 min⁻¹
Cc1cc2c(-c3ccco3)cnc(N[C@H]3CCN(C)C[C@@H]3C(=O)NC3CCCCC3)c2[nH]c1=O — inhibition (Sigma non-opioid intracellular receptor 1 (SIGMAR1, Homo sapiens, UniProt Q99720); binding, radioligand binding; 10 µM): -20.8%
CCOP(=S)(OCC)Oc1cc(C)nc(C(C)C)n1 — inhibition (Ache; ES1+/+ mice, plasma; subcutaneous, 50.0 mg/kg, 2.0 h, toxicant challenge): 88%
NC(=O)c1ccc[n+]([C@@H]2O[C@H](COP(=O)([O-])OP(=O)(O)OC[C@H]3O[C@@H](n4cnc5c(N)ncnc54)[C@H](O)[C@@H]3O)[C@@H](O)[C@H]2O)c1 — Km (Inosine-5'-monophosphate dehydrogenase (guaB, Bacillus anthracis, UniProt A0A6L8P2U9); substrate; pH 8.0, 25 °C): 550 ± 50 µM
CCOP(=S)(OCC)Oc1nc(Cl)c(Cl)cc1Cl — inhibition (Ache; ES1-/- mice; transdermal, 100 mg/kg, 24 h, toxicant challenge): 53%
NC12CC3CC(CC(C3)C1)C2 — EC50 (Influenza A virus; viral replication, plaque size reduction; MDCK, A/Swine/Iowa/9-0814/2009 (H1N1)): 38.2 ± 3.2 µM
CNC(=O)Oc1cccc2c1OC(C)(C)C2 — inhibition (Ces1c (Mus musculus, UniProt P23953); alpha-naphthyl acetate hydrolysis; ES1+/+ mice, plasma; subcutaneous, 1.0 mg/kg, 0.5 h, toxicant challenge): 94%
CN(C)c1ccc(C(=O)On2nnc3ccccc32)cc1 — mass shift (Replicase polyprotein 1ab, 3C-like proteinase (rep, Severe acute respiratory syndrome-related coronavirus, UniProt P0C6X7); covalent acylation of Cys145, ESI-MS; 2 h, 18 h dialysis; reference: untreated protease): 149 Da

Repeated from above:
CN(C)c1ccc(C(=O)On2nnc3ccccc32)cc1 — mass shift (Replicase polyprotein 1ab, 3C-like proteinase (rep, Severe acute respiratory syndrome-related coronavirus, UniProt P0C6X7); covalent acylation of Cys145, ESI-MS; 2 h, 18 h dialysis; reference: untreated protease): 149 Da
CNC(=O)Oc1cccc2c1OC(C)(C)C2 — inhibition (Ces1c (Mus musculus, UniProt P23953); alpha-naphthyl acetate hydrolysis; ES1+/+ mice, plasma; subcutaneous, 1.0 mg/kg, 0.5 h, toxicant challenge): 94%
